Results gathered from unrelated publications.
Protocols differ between the studies behind these lines. Values joined by “and” are separate records of one study, mostly repeats; a detail may differ. Numbers after ± are the reported error.

| SMILES | cell line | assay | setting | scale | measurement | result |
| --- | --- | --- | --- | --- | --- | --- |
| CC(=O)[C@]1(O)Cc2c(O)c3c(c(O)c2[C@@H](O[C@H]2C[C@H](N)[C@H](O)[C@H](C)O2)C1)C(=O)c1ccccc1C3=O | differentiated THP-1 | – | 72 h | baseline: THP-1 CC50 over EC50 | selectivity index | 3 |
| COc1ccc2c(c1NC(=O)OC(C)c1ccc([N+](=O)[O-])s1)CCC=C2c1cc(OC)c(OC)c(OC)c1 (stereo not drawn) | A549 | – | 4 h anoxic | baseline: oxic IC50 over anoxic IC50 | hypoxic cytotoxicity ratio | 4.8 |
| Cc1ccc(S(=O)(=O)Nc2nc(N)c(-c3nc4ccccc4s3)c(-c3ccc(Cl)cc3)n2)cc1 | HEp-2 | cytotoxicity | 72 h | – | maximum non-toxic concentration | 100 µg/mL |
| CN(C)[C@@H]1C(O)=C(C(N)=O)C(=O)[C@@]2(O)C(O)=C3C(=O)c4c(O)ccc(Cl)c4[C@@](C)(O)[C@H]3C[C@@H]12 | LMH chicken hepatoma cells | – | – | – | CC50 | 50.4 µM |
| CC[C@]1(O)C[C@@H]2CN(CCc3c([nH]c4ccccc34)[C@@](C(=O)OC)(c3cc4c(cc3OC)N(C)[C@H]3[C@@](O)(C(=O)OC)[C@H](OC(C)=O)[C@]5(CC)C=CCN6CC[C@]43[C@@H]65)C2)C1 | human peripheral blood lymphocytes | CBPI, micronucleus test | 5 ng/mL, 24 h, without S9 | baseline: vehicle | cytotoxicity | 5% |
| Cc1ccc(C(=O)CNc2nc(NS(=O)(=O)c3ccccc3)ncc2-c2nc3ccccc3s2)cc1 | HEp-2 | cytotoxicity | 72 h | – | maximum non-toxic concentration | 100 µg/mL |
| COC[C@@H](CC(C)C)NC(=O)c1ccc(C)c(C)c1 | primary human lymphocytes | – | 280 µg/mL, 4 h | – | mitotic index | 8.9 |
| C[C@]12CC[C@@H]3c4ccc(O)cc4C[C@@H](CCCCCCCCC[S+]([O-])CCCC(F)(F)C(F)(F)F)[C@H]3[C@@H]1CC[C@@H]2O (stereo partly drawn) | T47D | CCK-8 | 100 nM | baseline: untreated | viability | 76.5% and 72.8% and 71.2% |
| CCCCc1nc2c(N)nc3ccccc3c2n1Cc1ccc(CN)cc1 | Ramos | – | up to 30 µM | – | cytotoxicity | not toxic |
| OCC1=C(F)[C@@H](n2nnc3c(NO)ncnc32)[C@H](O)[C@@H]1O | BHK-D2-Rluc | MTT | 48 (unit not given) | – | CC50 | > 100 µM |
| CCSc1c(-c2nc3ccccc3s2)c(N)n(NS(=O)(=O)c2ccccc2)c(=O)c1C#N | HEp-2 | – | 72 h | – | maximum non-toxic concentration | 120 µg/mL |
| CCOC(=O)C1=C(CN2CCC[C@@H]2C(=O)Nc2ccc(B(O)O)cc2)NC(c2nccs2)=N[C@H]1c1ccc(F)cc1Br | primary human hepatocytes | item: CYP3A4 mRNA | 10 µM, sandwich culture | baseline: rifampicin | CYP3A4 induction | 8.78% |
| CC(C)C[C@@H](C=O)NC(=O)[C@H](CC(C)C)NC(=O)[C@H](CC(C)C)NC(=O)OCc1ccccc1 | LMH chicken hepatoma cells | – | – | – | CC50 | 135 µM |
| C1CCc2c(c(N3CCOCC3)nc3sc4c(N5CCNCC5)nnnc4c23)C1 | cryopreserved mouse hepatocytes | UHPLC-MS peak area | 1 µM, 20 min | – | percentage of drug-related material | 47.9% |
| Cc1cc(C(=O)NC(C)(C)COc2cccc3c2C(N)=NS(=O)(=O)N3)cc(C)n1 | human peripheral blood lymphocytes | CBPI, preliminary test | 200 µg/mL, 24 h | baseline: vehicle control | cytotoxicity | -1% |
| O=C(CNc1nc(NS(=O)(=O)c2ccccc2)ncc1-c1nc2ccccc2s1)c1ccc(Cl)cc1 | HEp-2 | cytotoxicity | 72 h | – | maximum non-toxic concentration | 110 µg/mL |
| COc1ccc2c(c1NC(=O)OCc1cnc([N+](=O)[O-])n1C)CCC=C2c1cc(OC)c(OC)c(OC)c1 | A549 | – | 4 h anoxic | baseline: oxic IC50 over anoxic IC50 | hypoxic cytotoxicity ratio | 2.2 |
| COc1ccc2c(Cc3ccccc3F)c3[n+](cc2c1OC)CCc1cc2c(cc1-3)OCO2 | NIH3T3 | cytotoxicity, CCK-8 | 24 h | – | IC50 | 52.2 µM |

| SMILES | cell line | assay | setting | scale | measurement | result |
| --- | --- | --- | --- | --- | --- | --- |
| COc1ccc(-c2nc(N)nc(N)c2-c2nc3ccccc3s2)cc1 | HEp-2 | cytotoxicity | 72 h | – | maximum non-toxic concentration | 90 µg/mL |
| COc1ccc2c(c1NC(=O)OCc1ccc([N+](=O)[O-])s1)CCC=C2c1cc(OC)c(OC)c(OC)c1 | A549 | – | 4 h anoxic | baseline: oxic IC50 over anoxic IC50 | hypoxic cytotoxicity ratio | 1.7 |
| Cc1ccc(-c2nc(NS(=O)(=O)c3ccc(C)cc3)nc(N)c2-c2nc3ccccc3s2)cc1 | HEp-2 | cytotoxicity | 72 h | – | maximum non-toxic concentration | 100 µg/mL |
| O=C1c2ccccc2C(=O)c2c(NCCc3ccc(O)cc3)ccc(NCCc3ccc(O)cc3)c21 | differentiated THP-1 | – | 72 h | baseline: THP-1 CC50 over EC50 | selectivity index | 1 |
| Cc1c(C)c2c(c(C)c1O)CCC(C)(COc1ccc(CC3SC(=O)NC3=O)cc1)O2 (stereo not drawn) | HepaRG | CellTiter-Glo | up to 100 µM, 24 h | – | cytotoxicity | < 15% |
| Cc1ccc(S(=O)(=O)Nn2c(N)c(-c3nc4ccccc4s3)c3[nH]nc(N)c3c2=O)cc1 | HEp-2 | – | 72 h | – | maximum non-toxic concentration | 90 µg/mL |
| CC[C@]1(O)C[C@H]2CN(CCc3c([nH]c4ccccc34)[C@@](C(=O)OC)(c3cc4c(cc3OC)N(C=O)[C@H]3[C@@](O)(C(=O)OC)[C@H](OC(C)=O)[C@]5(CC)C=CCN6CC[C@]43[C@@H]65)C2)C1 | CHP-212 resistant subline R2 (heterozygous USP7 V517F) | cell viability | 370.37 nM | – | viability | 12% and 15.4% and 12.7% |
| c1csc(CNc2cc[nH]n2)c1 | human peripheral blood lymphocytes | – | 100 µg/mL, 20 h | – | numerical aberration cells | 0% |
| CCOC(=O)c1cc(C#N)c(=O)n(NS(=O)(=O)c2ccc(C)cc2)c1N | HEp-2 | – | 72 h | – | maximum non-toxic concentration | 90 µg/mL |
| CO[C@@]12[C@H](COC(N)=O)C3=C(C(=O)C(C)=C(N)C3=O)N1C[C@@H]1N[C@@H]12 | human peripheral blood lymphocytes | in vitro micronucleus test | 0.25 µg/mL, 3 h exposure, -S9, 27 h harvest | – | cytostasis | 61% |
| Cc1cc(C)c(CNC(=O)c2cc(Cl)c3c(c2C)O[C@@](C)([C@H]2CC[C@H](N(C)C)CC2)O3)c(=O)[nH]1 | Caco-2 | – | 20 µM, added: verapamil 100 µM | – | efflux ratio | 1.09 |
| Cc1ccc(S(=O)(=O)Nc2nc(N)c(-c3nc4ccccc4s3)c(-c3ccccc3)n2)cc1 | HEp-2 | cytotoxicity | 72 h | – | maximum non-toxic concentration | 90 µg/mL |
| Clc1cccc(COc2ccccc2CNCc2ccccc2)c1 | A549 | – | – | – | cytotoxic concentration | > 12.5 µM |
| CSc1nc(NS(=O)(=O)c2ccccc2)nc(N)c1-c1nc2ccccc2s1 | HEp-2 | cytotoxicity | 72 h | – | maximum non-toxic concentration | 90 µg/mL |
| CCCCCCCCN(CCC(=O)Nc1ccccc1)C(=O)[C@@H]1CCCN1 | Lmna+/+ mouse fibroblasts | MTT | 2 µM, 72 h | baseline: vehicle | viability | 114 ± 10% |
| CCC(CC)COC(=O)[C@H](C)N[P@](=O)(OC[C@H]1O[C@@](C#N)(c2ccc3c(N)ncnn23)[C@H](O)[C@@H]1O)Oc1ccccc1 | primary human hepatocytes | spare respiratory capacity, Seahorse OCR | 4 h | – | CC50 | > 30 µM |
| Clc1ccc(COc2ccccc2CNCc2ccccc2)cc1 | A549 | – | – | – | cytotoxic concentration | > 12.5 µM |
| CCSC(SCC)=C(C#N)c1nc2ccccc2s1 | HEp-2 | – | 72 h | – | maximum non-toxic concentration | 110 µg/mL |

Excerpt of the above:
| SMILES | cell line | assay | setting | scale | measurement | result |
| --- | --- | --- | --- | --- | --- | --- |
| CCSC(SCC)=C(C#N)c1nc2ccccc2s1 | HEp-2 | – | 72 h | – | maximum non-toxic concentration | 110 µg/mL |
| CSc1nc(NS(=O)(=O)c2ccccc2)nc(N)c1-c1nc2ccccc2s1 | HEp-2 | cytotoxicity | 72 h | – | maximum non-toxic concentration | 90 µg/mL |
| C[C@]12CC[C@@H]3c4ccc(O)cc4C[C@@H](CCCCCCCCC[S+]([O-])CCCC(F)(F)C(F)(F)F)[C@H]3[C@@H]1CC[C@@H]2O (stereo partly drawn) | T47D | CCK-8 | 100 nM | baseline: untreated | viability | 76.5% and 72.8% and 71.2% |
| CCC(CC)COC(=O)[C@H](C)N[P@](=O)(OC[C@H]1O[C@@](C#N)(c2ccc3c(N)ncnn23)[C@H](O)[C@@H]1O)Oc1ccccc1 | primary human hepatocytes | spare respiratory capacity, Seahorse OCR | 4 h | – | CC50 | > 30 µM |
